Assay results collected from several papers.
Parts stem from different laboratories: compare values within a part only. “And” joins repeats or separate records; there may be more than shown.

Set 1 — effect on: peptide-MHC binding; form: peptide; concentration: concentration not given
Target: HLA class I histocompatibility antigen, A alpha chain, allele A*25:01 (Homo sapiens, UniProt P04439)
Sequence | binding
FLLPILSQIYT | inactive
DEMVCKWLL | inactive
TPSGKRLQI | inactive
KLADYLLLQ | inactive
SVANIDRIK | inactive
QYLFSLTYV | inactive
VIMWYNYLF | inactive
MQIDGGEGV | inactive

Set 2 — effect on: binding; method: radioligand binding; concentration: 10 µM
Target: D(1B) dopamine receptor (DRD5, Homo sapiens, UniProt P21918)
Compound | inhibition
CC(=O)Nc1c(F)cc(C(=O)N[C@H]2CC[C@H](O)CC2)cc1O[C@@H](C)c1ccccc1 | 21.4%
CC1=C(C#N)C(c2ccc3c(c2)c(NC(=O)c2ccccc2C)nn3C)C(C#N)=C(C)N1 | 14.6%
O=C1CCc2cc(Nc3cc(OC4CCOCC4)c([N+](=O)[O-])cc3Cl)ccc2N1 | 13%
CCOC(=O)c1cc2cc(-c3cc(C(=O)NCc4ccc(C(=O)O)cc4)nn3C)ccc2[nH]1 | 59.6%
CNC(=O)Nc1ccc2c(c1)[C@]1(CC2)OC(=O)N(CC(=O)N(Cc2ccc(F)cc2)[C@@H](C)C(F)(F)F)C1=O | 20.5%
Cc1nc(N2CC[C@@H](O)C2)ncc1-c1cc(C(F)(F)F)cc2[nH]ncc12 | -11.9%
CC(=O)N1CCC(c2ccc(C(=O)NC(=N)N)cc2C(F)(F)F)CC1 | -8.21%
CN1C(=O)[C@@H](N2CCc3cn(Cc4ccccc4)nc3C2=O)COc2ccccc21 | 1.77%
CC(C)CC(=O)N1CCc2nc(-c3ccc(Br)cc3)nc(N(C)Cc3ccccc3)c2C1 | 19.4%
O=C(Nc1cccnn1)N1CC(CC=Cc2cncc(Oc3ccc(C(F)(F)F)cn3)n2)C1 | 4.5%

Mixed results
Structure (SMILES) | target or system | effect on | method | concentration | time | endpoint | result
CC(C)(C)c1cnc(CSc2cnc(NC(=O)C3CCN(CCCCCSc4cccc5c4CN(C4CCC(=O)NC4=O)C5=O)CC3)s2)o1 (centres unmarked) | HEK293T |  | trypan blue exclusion | 50 nM | 24 h | viability | 97.4% and 98% and 94.3%
C[C@]12CCC(=O)C=C1CC[C@@H]1[C@@H]2CC[C@@]2(C)[C@H]1CC[C@]2(C)O | Sarcocystis neurona | parasite activity |  | 10 µM | 96 h | activity class | inactive

Excerpt of the above (set 2):
Compound | inhibition
O=C(Nc1cccnn1)N1CC(CC=Cc2cncc(Oc3ccc(C(F)(F)F)cn3)n2)C1 | 4.5%
CC1=C(C#N)C(c2ccc3c(c2)c(NC(=O)c2ccccc2C)nn3C)C(C#N)=C(C)N1 | 14.6%
CCOC(=O)c1cc2cc(-c3cc(C(=O)NCc4ccc(C(=O)O)cc4)nn3C)ccc2[nH]1 | 59.6%
